Measured values of several laboratories.
Compare with care: the assays were run in different laboratories. Values joined by “and” are separate records of one study, mostly repeats; a detail may differ.
Target: Death-associated protein kinase 2 (DAPK2, Homo sapiens, UniProt Q9UIK4)

SMILES	assay	setting	how to read	measurement	value
NC(=O)[C@@H](O)C[C@H]1CCc2sc3ncnc(O[C@H]4CC[C@H](N5CCOCC5)CC4)c3c21	enzyme activity, inhibitor	10 µM	–	inhibition	1%
CCN1CCN(Cc2ccc(C(=O)Nc3ccc(C)c(NCc4cnc5[nH]ccc5c4OC)c3)cc2C(F)(F)F)CC1	binding, competition with immobilised ligand	1 µM	–	remaining binding	69%
C=CC(=O)N1CCCC(n2c(=O)c3ncccc3n(Cc3ccc(Oc4ccccc4)cc3)c2=O)C1 (stereo not shown)	cell-free assay, competition with immobilised ligand	1 µM	–	remaining binding	98%
C=CC(=O)N1Cc2nc(-c3cc(-c4cc(Cl)cnc4Cl)c(F)cc3F)n(-c3ccncn3)c2C1	cell-free assay, inhibitor	1 µM	–	inhibition	4.4%
Cc1ccc(-c2c(/C=C(\C#N)C(=O)NC(C)C)n(CCCO)c3ncnc(N)c23)cc1	cell-free assay, competition with immobilised ligand	1 µM	–	remaining binding	100%
C=CC(=O)N1CCc2ccc(-n3c(=O)ccc4cnc5ccc(-c6cnn(C)c6)cc5c43)cc21	KINOMEscan	1 µM	relative to: DMSO control	remaining binding	100%
CNC1C[S+]2CC[S+]3CC[S+](C1)[Ru-4]321([N]=C=S)[n]2c3ccc(OC)cc3c3c4c(c5cc(F)c[n+]1c5c32)C(=O)NC4=O (stereo not shown)	KinomeScan	0.1 µM	relative to: untreated	remaining binding	5.8%
Cc1nc2c(F)cc(-c3nc(Nc4ccc(CNC(=O)CCCCCCC(=O)NO)cc4)ncc3F)cc2n1C(C)C	enzyme activity, inhibitor	1 µM	–	inhibition	46%
COc1c(OCCCN2CCOCC2)ccc2c1N=C(NC(=O)c1cnc(N)nc1)N1CCN=C21	kinase activity, inhibitor	1 µM	relative to: untreated control	remaining activity	93%
COc1ccc(NC(=O)Nc2ccc3c(c2)C(=O)N(C(C)CO)CC(C)C(CN(C)Cc2ccc4c(c2)OCO4)O3)cc1 (stereo not shown)	kinase activity, KinaseProfiler	0.03 µM, species human	relative to: control	remaining activity	95%
O=C(Cc1ccc(OCc2ccccc2)cc1)NC1(C(=O)O)CCN(C(=O)c2ccc(-c3cccc(Cl)c3)cc2)CC1	enzyme activity, inhibitor	10 µM	–	activity vs control	106%
COCC12C(=O)NC3C4(C(OC)CC1O)C1CC5(O)C(OC)C(O)C(OC(C)=O)(C1C5OC(=O)c1ccccc1)C3(O)C(OC)C24 (stereo not shown)	kinase activity, inhibitor, ProQinase kinase profiling	25 µM	relative to: control	remaining activity	96% and 99%
Cc1cnc2nc1Nc1cccc(c1)COC/C=C/COCc1cc(ccc1OCCN1CCOCC1)N2	binding	0.1 µM	–	remaining binding	91%

Excerpt of the above:
SMILES	assay	setting	how to read	measurement	value
Cc1cnc2nc1Nc1cccc(c1)COC/C=C/COCc1cc(ccc1OCCN1CCOCC1)N2	binding	0.1 µM	–	remaining binding	91%
